Literature values, collected from citations in different studies.
Each line is one published result; not all experiments were run side by side. Values joined by “and” are separate records of one study, mostly repeats; a detail may differ. Numbers after ± are the reported error. In brackets after ≈: the same amount, converted by molar mass.

SMILES = c1ccc2c3c([nH]c2c1)C(c1c[nH]c2ncccc12)NCC3 (stereo not drawn); target or system = Escherichia coli; assay = efflux pump inhibition; test system = AG100A AcrAB-TolC deleted; conditions = 50 µM; how to read = reference: untreated cells; measurement = relative fluorescence index; result = 0.3
SMILES = O=C(CCCCCONC(=O)c1c[nH]c2ccccc12)NO; target or system = Plasmodium falciparum; assay = parasite growth; test system = 3D7; measurement = IC50; result = < 100 nM and 70 nM
SMILES = CCCCCCCCCC(=O)NC1CCCC1; target or system = Pseudomonas aeruginosa; assay = rhamnolipid production; test system = PAO1; conditions = 250 µM; measurement = inhibition; result = 85%
SMILES = CNC1CCC(CC(O)Cn2c3ccccc3c3ccccc32)CC1 (stereo not drawn); target or system = Plasmodium; assay = parasite growth; measurement = IC50; result = 162 nM
SMILES = NS(=O)(=O)c1nnc(NC(=O)C2CCCCC2)s1; target or system = Enterococcus faecalis; test system = NR-31971; measurement = MIC; result = 1.72 µM (≈ 0.499 µg/mL)
SMILES = CCN(CC)CC#CCNc1ccnc2cc(Cl)ccc12; target or system = Plasmodium falciparum; assay = parasite growth, SYBR Green I; test system = K1; conditions = average of experiments; measurement = IC50; result = 50 nM
SMILES = O=S(=O)(c1ccc(-c2ccc3ncnc(Nc4ccc(OCc5cccc(F)c5)c(Cl)c4)c3c2)cc1)N1CCCC1; target or system = Trypanosoma brucei; assay = parasite growth; measurement = EC50; result = 350 nM
SMILES = O=C(CCCCCCCCCN=C=S)CC(=O)N[C@H]1CCOC1=O; target or system = Pseudomonas aeruginosa; test system = PAO1; conditions = 50 µM; measurement = pyocyanin inhibition; result = 40%
SMILES = Fc1cccc(COc2ccc(Nc3ncnc4ccc(-c5ccc(CN6CCOCC6)cc5)cc34)cc2Cl)c1; target or system = Trypanosoma brucei; assay = parasite growth; measurement = EC50; result = 990 nM
SMILES = COc1ccc(C(=O)C=C(O)C(F)(F)C(F)(F)F)c(O)c1; target or system = Plasmodium falciparum; assay = parasite growth; test system = 3D7; measurement = EC50; result = 140 ± 10 nM
SMILES = O=C(CCCOc1ccc(Cl)cc1)N[C@H]1CCOC1=O; target or system = Vibrio harveyi; assay = bioluminescence, antagonist; test system = BB120; measurement = IC50; result = 40000 nM
SMILES = c1cnc2[nH]cc(C3NCCc4sccc43)c2c1 (stereo not drawn); target or system = Escherichia coli; assay = efflux pump inhibition; test system = AG100 AcrAB-TolC expressing; conditions = 50 µM; how to read = reference: untreated cells; measurement = relative fluorescence index; result = 0.06
SMILES = COc1ccc(Nc2nc(Nc3ccc(OCC[18F])cc3)ncc2Br)cc1; test system = S180 tumour-bearing mice, tumor; conditions = intravenous, 60 min; measurement = tissue uptake; result = 3.23 ± 0.14 %ID/g
SMILES = c1ccc2c(c1)CCNC2c1c[nH]c2cnccc12 (stereo not drawn); target or system = Escherichia coli; assay = efflux pump inhibition; test system = AG100 AcrAB-TolC expressing; conditions = 50 µM; how to read = reference: untreated cells; measurement = relative fluorescence index; result = 0.47
SMILES = O=C(NCc1ccc2c(c1)OCO2)C1CCN(c2ncnc3onc(-c4cccc(F)c4)c23)CC1; target or system = Plasmodium; assay = parasite growth; measurement = IC50; result = 980 nM
SMILES = CC(C)(C)OCc1ccc(-c2ccc3ncnc(Nc4ccc(OCc5cccc(F)c5)c(Cl)c4)c3c2)cc1; target or system = Trypanosoma brucei; assay = parasite growth; measurement = EC50; result = 220 nM
SMILES = CN(c1ccc(NC(=O)c2cccc(C(=N)N)c2)cc1OCc1ccc(C(=N)N)cc1)S(=O)(=O)Cc1ccccc1; target or system = Trypanosoma brucei; assay = cell growth; test system = Lister 427; measurement = IC50; result = 1 ± 0.4 nM
SMILES = O=C(Nc1ccc2ccc(=O)oc2c1)c1cn(-c2ccc3noc(-c4ccccc4)c3c2)nn1; target or system = Plasmodium; assay = parasite growth; measurement = IC50; result = 15700 nM
SMILES = NS(=O)(=O)c1nnc(NC(=O)CCc2ccccc2)s1; target or system = Enterococcus faecalis; test system = NR-31971; measurement = MIC; result = 0.384 µM (≈ 0.12 µg/mL)
SMILES = CCOC(=O)[C@H]1c2c(ccc3ccccc23)O[C@@H]2c3ccccc3CCN21; target or system = Staphylococcus aureus; assay = efflux pump inhibition; test system = ATCC 25923; conditions = 50 µM; how to read = reference: untreated cells; measurement = relative fluorescence index; result = 0.15
SMILES = O=C(CCCOc1cccc(Br)c1)N[C@H]1CCSC1=O; target or system = Pseudomonas aeruginosa; assay = pyocyanin production; test system = PA14; conditions = 100 µM; measurement = inhibition; result = 80%
SMILES = CNC(C)(C)C(O)CC(O)Cn1c2ccccc2c2ccccc21 (stereo not drawn); target or system = Plasmodium; assay = parasite growth; measurement = IC50; result = 10100 nM
SMILES = [2H]C([2H])([2H])C1(C([2H])([2H])[2H])NC(=O)N(c2ccc(F)c(C(C)(F)F)c2)C1=O; target or system = Schistosoma mansoni; test system = juvenile, infected mice; conditions = single dose; measurement = ED50; result = 18 mg/kg
SMILES = O=C(c1cccc(S(=O)(=O)N2CCc3ccccc32)c1)N1CCC(c2nnc3ccccn23)CC1; target or system = Plasmodium; assay = parasite growth; measurement = IC50; result = 18500 nM
SMILES = O=C(c1cccc(-c2ccc3ncnc(Nc4ccc(OCc5cccc(F)c5)c(Cl)c4)c3c2)c1)N1CCCCC1; target or system = Trypanosoma brucei; assay = parasite growth; measurement = EC50; result = 140 nM
SMILES = COCC(=O)Nc1c(C(=O)OC)n(CCC(C)C)c2ncc(NC(C)CCC=C(C)C)cc12 (stereo not drawn); target or system = Plasmodium; assay = parasite growth; measurement = IC50; result = 3110 nM
SMILES = c1ccc2c(c1)CCNC2c1c[nH]c2ncccc12 (stereo not drawn); target or system = Escherichia coli; assay = efflux pump inhibition; test system = AG100 AcrAB-TolC expressing; conditions = 50 µM; how to read = reference: untreated cells; measurement = relative fluorescence index; result = 0.33
SMILES = CC(C)C[C@@H](NC(=O)[C@H](C)NC(=O)CNC(=O)[C@@H](NC=O)C(C)C)C(=O)N[C@@H](C)C(=O)N[C@@H](C(=O)N[C@H](C(=O)N[C@@H](C(=O)N[C@@H](Cc1c[nH]c2ccccc12)C(=O)N[C@H](CC(C)C)C(=O)N[C@@H](Cc1c[nH]c2ccccc12)C(=O)N[C@H](CC(C)C)C(=O)N[C@@H](Cc1c[nH]c2ccccc12)C(=O)N[C@@H](C(=O)N[C@@H](Cc1c[nH]c2ccccc12)C(=O)NCCO)C(C)C)[C@H](C)O)C(C)C)C(C)C; target or system = Listeria monocytogenes; test system = 10403S; measurement = MIC; result = 2.1 µM (≈ 3.93 µg/mL)
SMILES = O=C(c1cccc(-c2ccc3ncnc(Nc4ccc(OCc5cccc(F)c5)c(Cl)c4)c3c2)c1)N1CCCC1; target or system = Trypanosoma brucei; assay = parasite growth; measurement = EC50; result = 520 nM
SMILES = c1ccc2c(C3NCCc4sccc43)c[nH]c2c1 (stereo not drawn); target or system = Escherichia coli; assay = efflux pump inhibition; test system = AG100A AcrAB-TolC deleted; conditions = 50 µM; how to read = reference: untreated cells; measurement = relative fluorescence index; result = 0.43
SMILES = NS(=O)(=O)c1nnc(NC(=O)CN2CCOCC2)s1; target or system = Enterococcus faecalis; test system = NR-31971; measurement = MIC; result = 6.51 µM (≈ 2 µg/mL)
SMILES = CC(C)C[C@@H](NC(=O)[C@H](C)NC(=O)CNC(=O)[C@@H](NC=O)C(C)C)C(=O)N[C@@H](C)C(=O)N[C@@H](C(=O)N[C@H](C(=O)N[C@@H](C(=O)N[C@@H](Cc1c[nH]c2ccccc12)C(=O)N[C@H](CC(C)C)C(=O)N[C@@H](Cc1c[nH]c2ccccc12)C(=O)N[C@H](CC(C)C)C(=O)N[C@@H](Cc1c[nH]c2ccccc12)C(=O)N[C@H](CC(C)C)C(=O)N[C@@H](Cc1c[nH]c2ccccc12)C(=O)NCCO)C(C)C)C(C)C)C(C)C; target or system = Listeria monocytogenes; test system = 10403S; measurement = MIC; result = 4.3 µM (≈ 8.09 µg/mL)
SMILES = CNC(C)(C)CCC(O)Cn1c2ccccc2c2ccccc21 (stereo not drawn); target or system = Plasmodium; assay = parasite growth; measurement = IC50; result = 2080 nM
SMILES = CC(=O)Nc1nnc(S(N)(=O)=O)s1; target or system = Enterococcus faecium; test system = HM-965; measurement = MIC; result = 9 µM (≈ 2 µg/mL)
SMILES = c1ccc2c(c1)CCNC2c1c[nH]c2ccncc12 (stereo not drawn); target or system = Staphylococcus aureus; assay = efflux pump inhibition; test system = ATCC 25923; conditions = 50 µM; how to read = reference: untreated cells; measurement = relative fluorescence index; result = -0.17
SMILES = O=C1C=C(Br)/C(=C/Br)O1; target or system = Pseudomonas aeruginosa; assay = pyoverdine production; test system = PAO1; conditions = 10 µM; measurement = inhibition; result = > 90%
SMILES = Fc1cccc(COc2ccc(Nc3ncnc4ccc(-c5cccc(N6CCSCC6)c5)cc34)cc2Cl)c1; target or system = Trypanosoma brucei; assay = parasite growth; measurement = EC50; result = 770 nM
SMILES = c1ccc2c(c1)CCCNC2c1c[nH]c2ncccc12 (stereo not drawn); target or system = Staphylococcus aureus; test system = reference strains; measurement = MIC; result = 50 µM (≈ 13.2 µg/mL)
SMILES = O=S(=O)(c1ccc(-c2ccc3ncnc(Nc4ccc(OCc5cccc(Br)c5)c(Cl)c4)c3c2)cc1)N1CCOCC1; target or system = Trypanosoma brucei; assay = parasite growth; measurement = EC50; result = 680 nM
SMILES = CCCCCCCCCCCCn1nnc(CC(=O)O)n1; target or system = Pseudomonas aeruginosa; test system = PAO1; conditions = 50 µM; measurement = pyocyanin inhibition; result = no inhibition
SMILES = O=S(=O)(c1ccc(-c2ccc3ncnc(Nc4ccccc4)c3c2)cc1)N1CCOCC1; target or system = Trypanosoma brucei; assay = parasite growth; measurement = EC50; result = 1400 nM
SMILES = CN1CCN(C(=O)c2cccc(CC(O)Cn3c4ccc(Br)cc4c4cc(Br)ccc43)c2)CC1 (stereo not drawn); target or system = Plasmodium; assay = parasite growth; measurement = IC50; result = 2340 nM

Some of these lines once more:
SMILES = CCCCCCCCCCCCn1nnc(CC(=O)O)n1; target or system = Pseudomonas aeruginosa; test system = PAO1; conditions = 50 µM; measurement = pyocyanin inhibition; result = no inhibition
SMILES = CC(C)C[C@@H](NC(=O)[C@H](C)NC(=O)CNC(=O)[C@@H](NC=O)C(C)C)C(=O)N[C@@H](C)C(=O)N[C@@H](C(=O)N[C@H](C(=O)N[C@@H](C(=O)N[C@@H](Cc1c[nH]c2ccccc12)C(=O)N[C@H](CC(C)C)C(=O)N[C@@H](Cc1c[nH]c2ccccc12)C(=O)N[C@H](CC(C)C)C(=O)N[C@@H](Cc1c[nH]c2ccccc12)C(=O)N[C@@H](C(=O)N[C@@H](Cc1c[nH]c2ccccc12)C(=O)NCCO)C(C)C)[C@H](C)O)C(C)C)C(C)C; target or system = Listeria monocytogenes; test system = 10403S; measurement = MIC; result = 2.1 µM (≈ 3.93 µg/mL)
SMILES = O=C(CCCCCONC(=O)c1c[nH]c2ccccc12)NO; target or system = Plasmodium falciparum; assay = parasite growth; test system = 3D7; measurement = IC50; result = < 100 nM and 70 nM
SMILES = O=C(Nc1ccc2ccc(=O)oc2c1)c1cn(-c2ccc3noc(-c4ccccc4)c3c2)nn1; target or system = Plasmodium; assay = parasite growth; measurement = IC50; result = 15700 nM
SMILES = CNC(C)(C)C(O)CC(O)Cn1c2ccccc2c2ccccc21 (stereo not drawn); target or system = Plasmodium; assay = parasite growth; measurement = IC50; result = 10100 nM
